Results collected from several papers.
Compare with care: the assays were run in different laboratories. Values joined by “and” are separate records of one study, mostly repeats; a detail may differ. ± gives the spread as reported. Values after ≈ are worked out from the molar mass of the structure shown.
CDK2: Cyclin-dependent kinase 2 (CDK2, Homo sapiens, UniProt P24941)
DRD3: D(3) dopamine receptor (DRD3, Homo sapiens, UniProt P35462)
UniProt P35462, sequence (whole entry, looked up): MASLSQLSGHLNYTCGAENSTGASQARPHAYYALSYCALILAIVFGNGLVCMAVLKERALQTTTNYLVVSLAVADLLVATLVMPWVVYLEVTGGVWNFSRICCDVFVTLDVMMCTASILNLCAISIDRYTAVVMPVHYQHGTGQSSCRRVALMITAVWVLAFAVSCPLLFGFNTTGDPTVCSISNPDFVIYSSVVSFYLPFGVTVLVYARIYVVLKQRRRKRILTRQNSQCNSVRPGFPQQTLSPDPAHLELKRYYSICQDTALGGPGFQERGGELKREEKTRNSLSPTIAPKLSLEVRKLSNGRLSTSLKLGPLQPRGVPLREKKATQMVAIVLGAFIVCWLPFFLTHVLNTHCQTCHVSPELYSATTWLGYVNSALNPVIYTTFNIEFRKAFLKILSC

| SMILES | tested on | test | test system | setting | scale | measurement | result |
| --- | --- | --- | --- | --- | --- | --- | --- |
| CC(C)[C@H](C(=O)Nc1ccc(C(=O)NO)cc1)c1ccccc1 |  |  | whole blood | 100 ng/mL, 1 h, 4 °C, stability on ice |  | measured concentration | 109 ng/mL |
| Cn1cc(-c2cn3nccc3c(-c3cnn([C@]4(CC#N)C[C@@H](C#N)C4)c3)n2)cn1 |  |  | healthy humans fed, plasma | 1200 mg once daily, day 10, geometric mean |  | average concentration | 620 ng/mL |
| Cc1ccc([C@@H]2O[C@H](CO)[C@@H](O)[C@H](O)[C@H]2O)cc1Cc1ccc(-c2ccc(F)cc2)s1 |  |  | Japanese type 2 diabetes patients | 100 mg, day 2, 24 h urine collection | reference: baseline | urinary calcium excretion change | 18.9 mg |
| CCOCC(=O)N1CCC[C@H](C(=O)NCc2nc(-c3ccc(C#N)nc3)cs2)C1 |  |  | Sprague-Dawley rat, male, urine | intravenous, 1 mg/kg, 24 h | reference: dose | urinary excretion | 4.7% |
| Cc1cc2sc(N)nc2c2cccnc12 |  |  | female BALB/c mice, plasma | i.p., 30 mg/kg |  | dose-normalised Cmax | 210 kg·ng/mL/mg |
| COc1ccc2c(=O)n(C)c(-c3ccccc3)nc2c1 |  |  | Sprague-Dawley rat, male, bladder | oral, 30 mg/kg, 4 h |  | tissue concentration | 24.7 ng/mL |
| CN(C(=O)n1cnc(-c2cccnc2)c1)C1CCCCC1 |  |  | Wistar rat, cerebellum | oral, 10 mg/kg of BIA 10-2474, 4 h, single dose |  | concentration | 30.8 ± 8.8 ng/g |
| C[C@@H](Oc1ccc(S(C)(=O)=O)cc1C(=O)N1C[C@@H]2C[C@]2(c2cc(C(F)(F)F)on2)C1)C(F)(F)F |  | measured: AUC0–inf | healthy human volunteers | oral, 10 mg | reference: fed over fasted | fed over fasted ratio | 114% |
| C[C@H](CCC(=O)O)[C@H]1CC[C@H]2[C@@H]3[C@H](O)C[C@@H]4C[C@H](O)CC[C@]4(C)[C@H]3C[C@H](O)[C@]12C |  |  | human, plasma | endogenous control diurnal | reference: daily mean concentration | relative peak deviation | 91.1 ± 21.6% |
| CNCc1ccc(-c2[nH]c3cc(F)cc4c3c2CCNC4=O)cc1 |  |  | human patients | oral, 600 mg twice daily, grade 4 |  | AST/ALT increased incidence | 0% |
| COC(=O)c1ccccc1Oc1nc(NC(C)C)nc(NC(C)C)n1 | CDK2 | binding |  |  |  | Kd | > 100 µM |
| Oc1ccc(/C=C/c2cc(O)cc(O)c2)cc1 |  |  | rat, azoxymethane-injected, blood at sacrifice | 10 mg/kg |  | chloride | 102 mEq/L and 99 mEq/L and 100 mEq/L |
| O=C(O)CCC(=O)O.[2H]C([2H])([2H])Oc1cc(C)c2[nH]ccc2c1CN1CC[C@@H](C2CC2)C[C@H]1c1ccc(C(=O)O)cc1 |  | multiple ascending dose | healthy Chinese subjects | 50 mg twice daily |  | subjects with sinus bradycardia TEAE | 25% |
| Cc1nc(-c2ccc(OCC(C)C)c(C#N)c2)sc1C(=O)O |  |  | KM mouse, chronic hyperuricaemia model | dose not given, day 6 |  | body weight | 32.5 g and 30.7 g and 31.6 g and 26.9 g and 28.3 g |
| CC(C)(C(=O)N1CCOc2c(C#N)cncc2C1)C(F)F |  | measured: Headache | human | oral, 40 mg, CSF pharmacokinetic cohort |  | subjects with adverse event | 66.7% |
| Cn1cnc([N+](=O)[O-])c1Sc1ccccc1C(=O)NCCOc1ccnc2cc3c(cc12)OCO3 |  | LC-UV/MS | Sprague-Dawley rat, whole blood | 10 µM, 37 °C |  | half-life | 28.9 min |
| CCOc1c([C@H](C)n2nc(C)c3c(N)ncnc32)cc(Cl)c(F)c1[C@@H]1CNC(=O)C1 |  |  | rat plasma | storage, freeze-thaw, autosampler |  | stability | stable |
| C[Si](C)(C)O[Si](C)(C)O[Si](C)(C)C |  |  |  |  |  | slope B, log KOA vs 1/T | 1950 |
| COc1cc(C(F)(F)F)c(Cl)cc1NS(=O)(=O)c1c(C)[nH]c(C)c1C(=O)N1CCC(F)(F)C1 | DRD3 | Go activation, antagonist, BRET |  | together with: dopamine |  | IC50 | > 100 µM |
| O=C(O)c1cccc(C(=O)O)c1 |  |  | betaine/propylene glycol DES-water | DES mass fraction 0.20 |  | apparent dissolution enthalpy | 5.03 kcal/mol |
| CN1C(=O)[C@@H](NC(=O)c2nnc(Cc3ccccc3)[nH]2)COc2cccnc21 |  | phase I single ascending dose | human, male and female | oral, 200 mg, fasted |  | participants with any TEAE | 16.7% |
| CC(C)=CC[C@@H](O)C1=CC(=O)c2c(O)ccc(O)c2C1=O |  |  | plasma | 25 ng/mL, 4 h, room temperature, stability |  | measured concentration | 23.5 ± 0.94 ng/mL |
| OC[C@H]1O[C@@H](c2ccc(F)c(Cc3cc4ccccc4s3)c2)[C@H](O)[C@@H](O)[C@@H]1O |  |  | Japanese patients, type 1 diabetes | oral, 100 mg/day, onset day 5 | reference: patients | hypoglycaemia-related adverse event | 2% |

| SMILES | tested on | test | test system | setting | scale | measurement | result |
| --- | --- | --- | --- | --- | --- | --- | --- |
| Cc1ccc(N(C)C(=O)/C=C/c2ccco2)cc1 |  | cold plate test | mice | oral, 30 mg/kg single, 45 min |  | licking latency | 18.5 ± 0.7 s |
| O=C(Nc1cnccc1Cl)N1CCN(Cc2ccc3c(c2)OC(F)(F)O3)CC1 |  |  | young men, plasma | oral, 75 mg once daily, day 10, normalized to 10 mg |  | dose-normalized Cmax | 126 ng/mL |
| CC(C)Oc1c(NC(=O)c2ccc(NC(=O)[C@H](CC(N)=O)NC(=O)c3ccc(/N=N/c4ccccc4)cc3)cc2)ccc(C(=O)N/N=C/c2ccc(C(=O)O)s2)c1O |  | absorbance | DMSO | 50 °C, PSS to ground state relaxation |  | thermal half-life | 48 min |
| Cn1cc(-c2ccc(-c3cncc(Cl)c3N3CCC4(CCNC4=O)CC3)cc2)cn1 | COLO 205 | microarray, measured: FLOT1 |  | concentration not given, 2 h, gene set Flotillin-1 | reference: untreated cells | fold change in expression | 2.08 |
| O=C1NCCc2nc(OCc3cccc(F)c3)ccc21 |  | measured: Salivation | Sprague-Dawley rat, male | oral, 100 mg/kg, 1 h, score 0 none to 2 full | direction not given | Irwin test score | 0 |
| CNC(=O)c1ccccc1Nc1cc(Nc2ccc(N3CCOCC3)cc2OC)ncc1C(F)(F)F |  |  | 0.1% w/v Soluplus buffer | 24 h, pH 6.8, 37 °C |  | solubility | > 40 µg/mL |
| NC(CO)(CO)CCc1ccc(Sc2cccc(OCc3ccccc3)c2)cc1Cl |  |  | human, supine | oral, 3 mg, 0 to 312 h, together with: cyclosporin 100 mg |  | pulse rate AUEC, geometric mean | 18800 h×bpm |
| COc1ncc(-c2nc3c(n2C(C)C)[C@H](c2ccc(Cl)cc2)N(c2cc(Cl)cn(C)c2=O)C3=O)c(OC)n1 |  | LC-MS/MS | human, plasma | oral, 15 mg, cycle 1 day 14, low-dose arm |  | Cmax | 106 ng/mL |
| O=C1CC[C@H](N2Cc3cc(N4CCN(CC5CCN(c6ccc([C@@H]7c8ccc(O)cc8CC[C@@H]7c7ccccc7)cc6)CC5)CC4)ccc3C2=O)C(=O)N1 |  | rapid equilibrium dialysis | human plasma | 2.5 µM, 6 h |  | unbound fraction in plasma | 0.035 |
| COc1cc(C(=O)N2CCC3(CC2)CC(=O)c2c(cnn2C(C)C)C3)cc(-c2ccc(C(=O)O)cc2)n1 |  |  | human, fasting serum | 40 mg once daily, day 13, adjusted geometric mean | reference: placebo | total cholesterol change from baseline | 4.8% |
| Cc1nc(C)c(-c2ccnc(Nc3ccc(Cl)cc3)n2)s1 | CDK2 | average of ITC, Octet and Thermofluor |  | untagged protein |  | Kd | 6.43 µM |
| O=C(Cc1ccc2ccccc2c1)Nc1cc(C2CCC2)[nH]n1 |  |  | extracted mouse plasma | 0.5 ng/mL, 24 h, 4 °C, autosampler stability |  | measured mean concentration | 0.494 ± 0.02 ng/mL |
| O=C(Nc1nc2cccc(-c3ccc(CN4CCS(=O)(=O)CC4)cc3)n2n1)C1CC1 |  | measured: gastrointestinal pain | human rheumatoid arthritis patients | oral, 75 mg once daily, 4 weeks, regardless of relatedness |  | treatment-emergent adverse events | 0% |
| NC1(C(=O)N[C@@H](CCO)c2ccc(Cl)cc2)CCN(c2nc[nH]c3nccc2-3)CC1 |  |  | metastatic CRPC patients | dose not given, grade 3 to 4, treatment-related, all doses, together with: enzalutamide 160 mg daily |  | incidence of Diarrhoea | 6.7% |
| N#Cc1ccc2c(c1)[C@H]1CCCN(C(=O)c3ccc4[nH]cnc4c3)[C@H]1C2 |  |  | human females | 80 mg, day 15 |  | total testosterone level | 1.6 nmol/L |
| O=C1CSCCN1c1ccc(CO[C@@H]2COc3nc([N+](=O)[O-])cn3C2)cn1 |  |  | aqueous buffer | pH 7.4 |  | aqueous solubility | 27.6 µg/mL (≈ 70.5 µM) |
| O=C(c1cccnc1-c1ccncc1)N1CCC(O)(Cc2ccccc2)CC1 |  |  | healthy Japanese adults, plasma | oral, 200 mg twice daily, day 14 |  | AUCtau/dose | 4.3 ng·h/mL/mg |
| NCCONC(=O)[C@@H]1CC[C@@H]2CN1C(=O)N2OS(=O)(=O)O |  | measured: leading to permanent discontinuation | healthy Chinese men | intravenous, 1 g, treatment-related |  | adverse event incidence | 0% |
| Cc1[nH]c(C)c(S(=O)(=O)Nc2ccc(C(F)(F)F)c(Cl)c2)c1C(=O)N1CCc2ccccc21 | DRD3 | β-arrestin recruitment, antagonist, PathHunter |  | together with: dopamine EC80 |  | IC50 | > 100 µM |
| CCCCCCCCCCCCCCCC(=O)N[C@@H](CCC(=O)NCCCC[C@@H]1NC(=O)[C@H]([C@@H](C)CC)NC(=O)[C@@H](NC(=O)[C@@H]2CCCN2C(=O)[C@H](Cc2ccccc2)NC(=O)[C@H](Cc2c[nH]cn2)NC(=O)[C@@H](NC(=O)[C@H](CC(=O)O)NC(=O)CC(C)C)[C@@H](C)O)CSSC[C@@H](C(=O)N[C@@H](CCCCN)C(N)=O)NC(=O)CNC(=O)[C@H](CCCCN)NC(=O)[C@H](CO)NC(=O)[C@H](CCCNC(=N)N)NC(=O)[C@@H]2CCCN2C(=O)[C@H](CCC(=O)O)NC(=O)[C@H](Cc2ccccc2)NC1=O)C(=O)O |  |  | healthy human | subcutaneous, 20 mg | reference: lyophilized over aqueous formulation | relative AUCinf | ~1.5 fold |
| CCc1cc(C(=O)NC)c2nccc(N3CCc4c(cc(Cn5ccnc5)cc4-c4cn(C)nc4C(F)(F)F)C3=O)c2c1 |  |  | Sprague Dawley rats | oral, 100 mg/kg twice daily, 7 days | reference: vehicle | serum AST change | 13% |
| C=CCN1CC(=O)N2[C@@H](Cc3ccc(O)cc3F)C(=O)N(Cc3cccc(N4CC(N5CCN(CC)CC5)C4)n3)C[C@@H]2N1C(=O)NCc1ccccc1 |  |  | advanced solid tumour patients | oral, 30 mg twice daily, grade ≥3, dose-escalation |  | treatment-related nausea | 0% |

A few entries again:
| SMILES | tested on | test | test system | setting | scale | measurement | result |
| --- | --- | --- | --- | --- | --- | --- | --- |
| Cc1nc(-c2ccc(OCC(C)C)c(C#N)c2)sc1C(=O)O |  |  | KM mouse, chronic hyperuricaemia model | dose not given, day 6 |  | body weight | 32.5 g and 30.7 g and 31.6 g and 26.9 g and 28.3 g |
| CC(C)(C(=O)N1CCOc2c(C#N)cncc2C1)C(F)F |  | measured: Headache | human | oral, 40 mg, CSF pharmacokinetic cohort |  | subjects with adverse event | 66.7% |
| Cn1cnc([N+](=O)[O-])c1Sc1ccccc1C(=O)NCCOc1ccnc2cc3c(cc12)OCO3 |  | LC-UV/MS | Sprague-Dawley rat, whole blood | 10 µM, 37 °C |  | half-life | 28.9 min |
| CCOc1c([C@H](C)n2nc(C)c3c(N)ncnc32)cc(Cl)c(F)c1[C@@H]1CNC(=O)C1 |  |  | rat plasma | storage, freeze-thaw, autosampler |  | stability | stable |
